Results from different studies.
Each numbered part is a random draw from the data of one study; scales do not carry over between parts.

Series 1
Target: RING finger protein unkempt homolog, zinc fingers 1-6, GST-SBP tag (UNK, Homo sapiens, UniProt Q9C0B0, residues 30-357)
Method: RNA Bind-n-Seq
Molecule type: RNA
Matrix: in vitro
Concentration: not given
Setting: RNA with constant flanks, human and mouse sites, ends assumed
Reference: input RNA pool
Reading: higher = stronger binding
Measurement: bound/input enrichment
Residues (chain): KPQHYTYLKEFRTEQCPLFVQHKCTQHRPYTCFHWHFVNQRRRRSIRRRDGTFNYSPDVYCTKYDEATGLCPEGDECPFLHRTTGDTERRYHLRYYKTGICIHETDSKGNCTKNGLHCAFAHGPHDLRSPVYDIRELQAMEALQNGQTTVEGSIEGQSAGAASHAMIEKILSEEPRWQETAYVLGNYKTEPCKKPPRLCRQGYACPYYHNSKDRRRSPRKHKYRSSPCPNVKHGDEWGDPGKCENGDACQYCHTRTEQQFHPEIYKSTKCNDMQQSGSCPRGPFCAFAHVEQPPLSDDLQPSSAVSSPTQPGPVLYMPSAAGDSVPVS
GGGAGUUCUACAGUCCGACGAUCCAGGUUUCUGGCCUUGCAGCCAAUCGUUCUCUGACAGAAGGCCUGGUCCUGGACACAAUGAAUGACAGCCUCAGCAAGAUCCUGCUGGACAUCAGCUUUCCUGGCCUGGACGAGGACCCACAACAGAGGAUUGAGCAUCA: 0.0636 ratio
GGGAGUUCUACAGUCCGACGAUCUUUCUUGUUUUUCUUUCUCCCCCCCCCCCCCUUCAGUUAACUACUUUUUAAUUGCAAUUCUAGGUAAUUGUGCAUCGUGAUGUGAUUGCUUGGCUAUUGUCUGAAUAUUUCCUUUUAAUUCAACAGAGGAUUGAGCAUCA: 0.962 ratio
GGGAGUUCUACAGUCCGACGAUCAUUACAUUACAUGAAAUGGCAGAAACAGAUGAAGGAUGGUUGGAUGUUGUCCAGUCUUUAAUUAGAGUUAUUCCAUUGGAAGAUCCAUUGGGACCAGCUGUUAUAACCUUGUUACUAGACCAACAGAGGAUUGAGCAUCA: 0.439 ratio
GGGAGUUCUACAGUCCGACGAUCCCUAAAUUUCCCAAUUUUCUGUCCAAAAUAUUUGUGAUUUACUUGUAUAUAAGCCUUCUCAUUUGCCAUGUGCUGUGAUCUUACAAGUUAGAUGUUACUAUACCUACCAUUUAUUCAGCUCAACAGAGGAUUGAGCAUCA: 5.5 ratio
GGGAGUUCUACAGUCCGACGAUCCCUUUCUGUUACUUGACUCUUCCAUUGCCUAUGAAAAAAGAACGUAGCUUGGAAGUUUAUUUAGUUAGAAUGGAUCCACUUGCUAAACCUAUGCAAUACAAAGUUAUUGUGCCCAAAAUUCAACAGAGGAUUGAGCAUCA: 0.177 ratio
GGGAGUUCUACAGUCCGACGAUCCCCUUUGGGAUUGUGAAAGCUUCGUGGCUACCAAAGUUUACACAAGCUGGUGCCCAGAAAAUGAAGAGACUGCCAACCCCUUCUAUGAUGAAUGAUUAUUAUGCAGCAUCUCCAAGAAUACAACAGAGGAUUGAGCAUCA: 0.0757 ratio

Series 2
Target: RNA binding protein fox-1 homolog 2, RRM domain, GST-SBP tag (RBFOX2, Homo sapiens, UniProt O43251-10, residues 100-194)
Method: RNA Bind-n-Seq
Molecule type: RNA
Matrix: in vitro
Concentration: 365 nM
Setting: natural RNA segment, single round, ends assumed
Reference: no-protein control
Reading: higher = stronger binding
Measurement: RBNS enrichment (R)
Target sequence (chain): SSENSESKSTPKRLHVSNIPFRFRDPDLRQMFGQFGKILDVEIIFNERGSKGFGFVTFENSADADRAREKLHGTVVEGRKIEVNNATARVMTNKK
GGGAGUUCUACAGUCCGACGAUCCUCCUCCAUGCCUGACCAACAGGCCCAGCUUUCCCUGCCAGGCCCUUUGCACUGAGGACACAGAUCCCGGGGAGCUGUGAGGGCCACCGGUGGGCAGUGGGUGGAUCCUGUGGAAUUCUCGGGUGCCAA: 0.375
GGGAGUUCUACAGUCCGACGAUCCCAUGCGUUUCUUCCACUGAGUCUUUCUUAGAUUAAAUCUCUCCCAGUUGUCCGUGAAGAGAAAGACAGUAUUUGCAGUGCCGAUGAUAUAGAGUGACUUGGAGAGAGAUUGGAAUUCUCGGGUGCCAA: 2.75
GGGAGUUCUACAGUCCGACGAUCCUUCCUCUGGGAUGGGAGUCCCGCAGCAUCGAGACUGGAAACGUACACAUUUCCCCCAGGGACCCUGUCUUACGAUGCUUUUCUACGUCAAUGCAAUUGUGGCCAUCUGGUGGAAUUCUCGGGUGCCAA: 0.455
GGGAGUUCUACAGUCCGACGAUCUAAAGCAGCUAAACACUGAGCUUCCCUCGGGGUUAGGACAGUGGCUUCUUAGCCUCUUUGUUUAGGGGCCACUGGAGAAUUCCACUUAGGGAGACUGGAUAUAGUAGUGCUGGAAUUCUCGGGUGCCAA: 0.328
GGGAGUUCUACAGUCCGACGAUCCUGUUGGGAAUGAUUGCUGUUGGAUUCUGGAAGGGAGGGGAAAGCUGCUCUGCUGCCUCUUUGCCACUUCCUGGAAGCCUUCCUCCCUGGAAGAACAGCCUUUUGCAUCUUGGAAUUCUCGGGUGCCAA: 1.69
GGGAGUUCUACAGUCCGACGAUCUGAUUCUGUUCUCGCUUUUAAAGGAUGCUGAGAUGGUGAUGUUACUCUCCAUUUUUGGUACCAGUUCUGAGACUGUAAGACUUUUCAUCUGGGACUUUAGCACACACUGAUGGAAUUCUCGGGUGCCAA: 0.419

Series 3
Target: Phosphate system positive regulatory protein PHO4, full length, GST-tagged (PHO4, Saccharomyces cerevisiae, UniProt P07270, residues 1-312)
Chain of UniProt P07270 (whole entry, looked up): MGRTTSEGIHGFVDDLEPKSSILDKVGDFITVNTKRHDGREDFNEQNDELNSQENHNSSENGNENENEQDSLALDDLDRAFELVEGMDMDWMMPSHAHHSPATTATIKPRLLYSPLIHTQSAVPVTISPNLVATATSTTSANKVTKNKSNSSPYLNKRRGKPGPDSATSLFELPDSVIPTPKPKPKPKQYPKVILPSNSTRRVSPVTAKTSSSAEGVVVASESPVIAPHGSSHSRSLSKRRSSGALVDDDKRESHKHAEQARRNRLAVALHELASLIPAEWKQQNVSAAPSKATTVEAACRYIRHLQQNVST
Method: competition protein-binding microarray
Molecule type: double-stranded DNA, one strand shown
Matrix: in vitro
Concentration: 2 µM
Setting: whole 60-bp probe, lowest competitor level
With: Cbf1 competitor, 0.05 µM
Reading: higher = stronger binding
Measurement: fluorescence intensity
CTTCTGTAAATTTGTTGAGTGGGTGGACGCGCCCCGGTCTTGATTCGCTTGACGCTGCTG: 4110 a.u.
GGTACAGCCGTCTACAACGTGTGTTAATTTGCTAACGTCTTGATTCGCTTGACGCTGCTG: 12900 a.u.
ATTACCCTTGTTTTTCAATTGAAAACCCGGAACGATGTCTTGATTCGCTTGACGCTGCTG: 3440 a.u.
CATACCCAACCTTGGTCGGTGGGTGAAGATATTTGTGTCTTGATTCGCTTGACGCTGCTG: 4060 a.u.
AGCAGCAATCCGCTGGACGTGGGTAAGTTGAAAGTTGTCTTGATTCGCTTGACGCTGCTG: 5280 a.u.
CTAACGAAGGTTTGGATAGTGGGTGACAAGCCAAGTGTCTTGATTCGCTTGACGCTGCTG: 3490 a.u.
GTCTTGTCTCATTGGCCGGTGGGTGTCCCCACTTCAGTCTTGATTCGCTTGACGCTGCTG: 4310 a.u.
GTATGCACTTGAAACAACGTGTAGACCATCAATTGGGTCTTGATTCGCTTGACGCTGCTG: 11600 a.u.
AAAGCGGTAATTTGTCACCTCACTTCACATATCTATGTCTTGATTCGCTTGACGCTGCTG: 3800 a.u.
AGAAAAAAACATGGCCACATGTAGTATCGACTGACAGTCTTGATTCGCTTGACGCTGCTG: 9900 a.u.
AGCCAGGTTGCTTCACACGTGTTGGTGTACGTTAAGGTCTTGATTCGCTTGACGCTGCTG: 16700 a.u.
GGTCTAAACCCATCTCACGTTCCCTATTAGTGGGTGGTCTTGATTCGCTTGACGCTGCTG: 10700 a.u.
AGCAGTGCTTTTACCCCCGTGCTTTTCGTTACAATAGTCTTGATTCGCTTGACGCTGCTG: 11000 a.u.
GAACGGATGCCCGAGCCCGTGCCAGCGCCCGAGCCTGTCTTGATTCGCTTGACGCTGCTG: 8090 a.u.
TAGTTATCCAGATGGATCGTGGCCGCGAGTACACTAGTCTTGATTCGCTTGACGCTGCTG: 8080 a.u.
CGGGGTTAAGTTTGTCACTGTACTTGCTTGCAGCAGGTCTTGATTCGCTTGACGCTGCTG: 3510 a.u.
CATACCCAACCTTTTCACGTGTCATAAGATATTTGTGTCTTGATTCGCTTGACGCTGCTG: 13100 a.u.
CTTCTGTAAATTTGAATGGTGGGTGGACGCGCCCCGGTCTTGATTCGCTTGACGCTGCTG: 4060 a.u.

Series 4
Target: PABPC1L2, full length, GST fusion (mouse, UniProt A0ABA7IW68)
Method: RNAcompete
Molecule type: RNA
Matrix: in vitro
Concentration: 20 nM
Setting: 7-mer, probes averaged, single round
Reference: mean of 7-mers
Reading: higher = stronger binding
Measurement: 7-mer Z-score
Target sequence (chain): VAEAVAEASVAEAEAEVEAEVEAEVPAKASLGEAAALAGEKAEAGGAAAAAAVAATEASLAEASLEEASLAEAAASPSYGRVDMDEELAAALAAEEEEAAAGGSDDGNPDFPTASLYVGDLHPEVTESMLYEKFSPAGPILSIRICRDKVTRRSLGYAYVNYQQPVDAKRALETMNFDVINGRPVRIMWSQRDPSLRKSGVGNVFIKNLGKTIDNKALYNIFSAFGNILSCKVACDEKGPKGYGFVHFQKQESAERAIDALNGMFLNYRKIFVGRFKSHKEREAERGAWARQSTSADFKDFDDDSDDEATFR
UUGCUUG: -0.374
UACGAUC: -0.18
CGACAUU: -0.122
GAUUACC: -0.271
GCGUAUU: -0.139
CCCCCGA: -0.402
CUGGUCG: -0.364
AACUCGA: 0.0279
GGACGGA: 0.517
CCACGAU: -0.128
AAUCCAU: 0.0515
AACAAUU: 0.447
UGGGCUU: -0.0047
CUGGUGC: -0.0754
GUCCCGG: -0.262
UAAAUCU: 0.49
ACGAGCG: 0.206
UUCUUGA: -0.358
CACGUCG: -0.244

A few entries again (series 4):
GUCCCGG: -0.262
UAAAUCU: 0.49
ACGAGCG: 0.206
UUCUUGA: -0.358
CACGUCG: -0.244
